Measured values gathered from unrelated publications.
Each line is one published result; not all experiments were run side by side. “And” joins repeats or separate records; there may be more than shown. ± gives the spread as reported.
Tpo: Thyroid peroxidase (Tpo, Rattus norvegicus, UniProt P14650)
gag-pol integrase: Gag-Pol polyprotein, integrase (gag-pol, Human immunodeficiency virus 1, UniProt P12497)
EPHX2: Bifunctional epoxide hydrolase 2 (EPHX2, Homo sapiens, UniProt P34913)
MGLL: Monoglyceride lipase (MGLL, Homo sapiens, UniProt Q99685)
JAK1: Tyrosine-protein kinase JAK1 (JAK1, Homo sapiens, UniProt P23458)
CDPK1: Calcium-dependent protein kinase 1 (CDPK1, Plasmodium falciparum, UniProt P62344)
CACNA1I: Voltage-dependent T-type calcium channel subunit alpha-1I (CACNA1I, Homo sapiens, UniProt Q9P0X4)
MAOB: Amine oxidase [flavin-containing] B (MAOB, Homo sapiens, UniProt P27338)
APC: Adenomatous polyposis coli protein (APC, Homo sapiens, UniProt P25054)

Substance	target	test	test system	conditions	IC50
CC(Oc1ccc(Cl)cc1Cl)C(=O)Nc1cc(Cl)ccc1C(=O)O (stereo not drawn)	TRPM4 (Homo sapiens, UniProt Q8TD43)	ion flux, inhibitor, fluorescence			1.8 µM
O=C(O[C@@H]1Cc2c(O)cc(O)cc2O[C@@H]1c1cc(O)c(O)c(O)c1)c1cc(O)c(O)c(O)c1	Tpo	enzyme activity, inhibitor, LC-MS/MS, refers to: monoiodotyrosine	rat thyroid microsomes	together with: L-tyrosine substrate	0.39 µM and 0.31 µM
Tannic acid	firefly luciferase	luminescence signal, inhibitor, ADP detection luminescence			> 77 µM
CCOC(=O)/C(O)=C/C(=O)c1c[nH]c2cc(Cl)ccc2c1=O	gag-pol integrase	3'-processing, inhibitor, gel-based		together with: Mg2+	> 333 µM
C[C@]12C[C@@H]3C[C@](C)(C1)C[C@@](NC(=O)Nc1ccc(CN4CCC[C@H](C(=O)NCCCCCC(=O)NO)C4)cc1F)(C3)C2	EPHX2	enzyme activity, inhibitor, fluorescence			0.0007 µM
CCCN1C[C@H](CSC)C[C@@H]2c3cccc4[nH]cc(c34)C[C@H]21	human MBNL1	CUG repeat RNA binding, inhibitor, HTRF		together with: biotin-(CUG)12 RNA	15.8 µM
O=C(OC(C(F)(F)F)C(F)(F)F)N1CCC(CCCCn2ccc3ccc(F)cc32)CC1	MGLL	enzyme activity, inhibitor			0.45 µM
CCCS(=O)(=O)Nc1cc(-c2cc(-c3ccc(N4CCNCC4)cc3)cnc2N)cc(OCC)c1OC	RIPK2 (Homo sapiens, UniProt O43353)	kinase activity, inhibitor, ADP-Glo		tested up to 10 µM	> 10 µM
COC(=O)C1=C(C)NC(C)=C([N+](=O)[O-])[C@H]1c1ccccc1C(F)(F)F	Voltage-dependent P/Q-type calcium channel subunit alpha-1A, with β4/α2δ1 (Homo sapiens, UniProt O00555)	calcium current, blocker, automated patch clamp		tonic block, holding -90 mV	24.8 ± 7.3 µM
COc1cc(C(Nc2ccccn2)c2cc3c(cc2O)OCO3)cc(OC)c1OC (stereo not drawn)	JAK1	enzyme activity, inhibitor			> 400 µM
CCOCCOc1ccc2cc(-c3cn(CC4CCN(C(C)=O)CC4)c4ncnc(N)c34)ccc2c1	CDPK1	enzyme activity, inhibitor			> 2 µM
C[C@]12CC[C@@H]3c4ccc(O)cc4CC[C@H]3[C@@H]1[C@H](OCCC(N)=O)CC2=O	HSD17B1 (Homo sapiens, UniProt P14061)	enzyme activity, inhibitor, radiometric			2.2 to 5.1 µM
NS(=O)(=O)c1ccc(N2N=C(C(F)(F)F)C[C@@H]2c2ccc(F)cc2F)cc1	Prostaglandin G/H synthase 1 (Canis lupus familiaris, UniProt Q8HZR1)	TXB2 formation, inhibitor	clotting dog whole blood	1 h, 37 °C	> 500 µM
COC(=O)C1=C(C)NC(C)=C(C(=O)O[C@@H]2CCCN(Cc3ccccc3)C2)[C@@H]1c1cccc([N+](=O)[O-])c1 (racemic)	CACNA1I	inhibitor, FLIPR calcium	HEK293 with GCaMP6s-CAAX, Kir2.3	together with: KCl at EC90	3.4 µM
O=C(Nc1cc(F)c(F)c(F)c1)c1cc(S(=O)(=O)N2CCOCC2)c(Cl)cc1Cl	LPAR2 (Homo sapiens, UniProt Q9HBW0)	Ca2+ mobilization, antagonist	MEF	together with: LPA at EC50	> 100 µM
CCOc1ccc2cc(-c3cn(CC4CC4)c4ncnc(N)c34)ccc2c1	CDPK1	enzyme activity, inhibitor			> 2 µM
Cc1ccc(NC(=O)NC2(C(=O)N3CCN(c4ccccc4)CC3)CCCCC2)cc1	Endoplasmic reticulum aminopeptidase 1, open conformation (ERAP1, Homo sapiens, UniProt Q9NZ08)	enzyme activity, inhibitor, fluorogenic		partial inhibition, together with: L-AMC substrate	> 200 µM
O=P(O)(O)Oc1cc(OP(=O)(O)O)cc(-c2c(OP(=O)(O)O)cc(OP(=O)(O)O)cc2OP(=O)(O)O)c1	Inositol polyphosphate-5-phosphatase A (Homo sapiens, UniProt Q14642)	enzyme activity, inhibitor		together with: Ins(1,4,5)P3 1.0 µM	1.85 µM
CCOC(=O)/C(O)=C/C(=O)c1cn(Cc2ccc(F)cc2)c2cc(Cl)ccc2c1=O	gag-pol integrase	3'-processing, inhibitor, gel-based		together with: Mg2+	> 333 µM
Oc1ccc(OCc2ccccc2)cc1	Tpo	tyrosine iodination, LC-MS/MS	rat thyroid microsomes	together with: KI 300 µM, H2O2 40 µM	8.55 µM
O=C(Cc1ccccc1F)Nc1cccc(-c2nnc(C3CCCCC3)o2)c1	α-amylase	enzyme activity, inhibitor			6.51 µM
[N-]=[N+]=NCCCCNC(=O)[C@@H]1[C@H]2[C@H](O)[C@@H](O)[C@H](O)[C@@H](CO)[C@@H]12	GBA1 (Homo sapiens, UniProt P04062, R534H)	enzyme activity, inhibitor		pH 5.2	99 µM and ~100 µM
CC(C)COc1cccc(CC(=O)N2CCNc3nc(C(F)(F)F)ccc3[C@H]2CC(=O)O)c1	Neuromedin-B receptor (Nmbr, Mus musculus, UniProt O54799)	radioligand binding	BALB cells expressing mouse NMBR	60 min, 21 °C, together with: 50 pM radioligand	> 3 µM
O=c1cc(-c2ccc(O)c(O)c2)oc2cc(O)cc(O)c12	UGT1A4 (Homo sapiens, UniProt P22310)	glucuronidation	pooled human liver microsomes	no preincubation	41 µM
COc1ccc2c(CC(=O)NCCCC[C@H](N)C(=O)N[C@@H](CCC(=O)O)C(=O)N[C@@H](Cc3ccc(CS(=O)(=O)O)cc3)C(=O)N[C@@H](CCC(=O)O)C(=O)N[C@@H](Cc3ccc(CS(=O)(=O)O)cc3)C(=O)N[C@@H](CC(C)C)C(=O)N[C@@H](CC(=O)O)C(=O)N[C@@H](Cc3ccc(CS(=O)(=O)O)cc3)C(=O)N[C@@H](CC(=O)O)C(=O)N[C@@H](Cc3ccccc3)C(=O)N[C@@H](CC(C)C)C(=O)N3CCC[C@H]3C(=O)N[C@@H](CCC(=O)O)C(=O)N[C@H](C(=O)N[C@@H](CCC(=O)O)C(=O)N3CCC[C@H]3C(=O)N[C@@H](CC(C)C)C(=O)O)[C@@H](C)O[C@H]3O[C@H](CO[C@@H]4O[C@H](CO)[C@@H](O[C@@H]5O[C@H](CO)[C@H](O)[C@H](O[C@]6(C(=O)O)C[C@H](O)[C@@H](NC(C)=O)[C@H]([C@H](O)[C@H](O)CO)O6)[C@H]5O)[C@H](O[C@@H]5O[C@@H](C)[C@@H](O)[C@@H](O)[C@@H]5O)[C@H]4NC(C)=O)[C@H](O)[C@H](O[C@@H]4O[C@H](CO)[C@H](O)[C@H](O)[C@H]4O)[C@H]3NC(C)=O)cc(=O)oc2c1	P-selectin (SELP, Homo sapiens, UniProt P16109)	chimera binding to monocytes, inhibitor, flow cytometry	human monocytes	together with: SELP Fc chimera 2 µg/mL	~20 µM
C=CC(C)(CO)c1cc2cc(-c3ccc(O)cc3O)c(=O)oc2cc1O (stereo not drawn)	RELA (Homo sapiens, UniProt Q04206)	NF-κB activity, inhibitor			0.23 µM

Substance	target	test	test system	conditions	IC50
CCCn1cnc2c(NCc3ccc(C)s3)nc(N[C@H](CC)CO)nc21	CACNA1I	inhibitor, FLIPR calcium	HEK293 with GCaMP6s-CAAX, Kir2.3	together with: KCl at EC90	20 µM
Oc1cccnc1O	HDAC6 (Homo sapiens, UniProt Q9UBN7)	enzyme activity, inhibitor, SAMDI mass spectrometry			> 10 µM
C[C@@H](CNCc1ccccc1)N1C[C@H](CCCNC(=N)N)N(CCc2cccc(F)c2)C1=S	nicotinic acetylcholine receptor	binding, radioligand displacement			> 1 µM
O=C(NNC(=O)c1ccc(CNS(=O)(=O)c2ccc(F)c(Cl)c2)cc1)c1ccccc1	Glutamate NMDA receptor; Grin1/Grin2a (Grin1/Grin2a, Rattus norvegicus, UniProt P35439+Q00959, V783H)	ion current, two-electrode voltage clamp		oocytes	0.06 µM
Cc1ccc(S(=O)(=O)N[C@H](CC(=O)N[C@@H](C)C(=O)NCc2cccc3ccccc23)CC(=O)NC(C)(C)C)cc1	Proteasome component C5/PSMB5 (Homo sapiens, UniProt P20618+P28074)	chymotrypsin-like activity, inhibitor		together with: suc-LLVY-AMC	35.3 µM
Nc1ncnc2c1ncn2[C@@H]1O[C@H](COP(=O)(O)OP(=O)(O)C(Cl)(Cl)P(=O)(O)O)[C@@H](O)[C@H]1O	JAK1	enzyme activity, inhibitor, HotSpot kinase		together with: ATP 1 µM	0.1 µM
NC(=O)[C@@H]1CC[C@@H]2CN1C(=O)N2OS(=O)(=O)O	PA3047 (Pseudomonas aeruginosa, UniProt Q9HZG1)	binding, Bocillin FL competition	Pseudomonas aeruginosa 1771 membranes	PBP 4, together with: Bocillin FL 100 µM	41.5 µM
O=C(O)c1cc2cc(Br)ccc2c(I)c1O	Glutamate NMDA receptor; Grin1/Grin2c (Rattus norvegicus, UniProt P35439+Q00961)	ion current, two-electrode voltage clamp		oocytes	5.93 µM
O=C(Nc1ccc([N+](=O)[O-])cc1[N+](=O)[O-])c1ccccc1	MAOB	enzyme activity, inhibitor			> 1 µM
O=C(OCC(F)(F)F)N1CC(N2CCN(C(=O)c3nccs3)CC2)C1	Monoglyceride lipase (Rattus norvegicus, UniProt Q8R431)	enzyme activity, inhibitor		with preincubation	> 1 µM
CC12CC3CC(C)(C1)CC(Nc1c(Nc4ccc(CN5CCC[C@H](C(=O)NCCCCCCC(=O)NO)C5)cc4F)c(=O)c1=O)(C3)C2	EPHX2	enzyme activity, inhibitor, fluorescence			0.072 µM
O=C(Nc1cccc(-c2nnc(C3CCCCC3)o2)c1)c1cc(F)cc(F)c1	α-amylase	enzyme activity, inhibitor			4.72 µM
CC(C)C[C@H](NC(=O)[C@H](Cc1ccc2ccccc2c1)NC(=O)[C@H](CCC(=O)O)NC(=O)c1ccnc(Br)n1)C(=O)NC1CC1c1ccccc1 (stereo partly drawn)	APC	ligand displacement, FP			6.45 µM
C[C@]12C[C@@H]3C[C@](C)(C1)C[C@@](NC(=O)Nc1ccc(C(=O)N4CCC[C@H](C(=O)NCCCCCCC(=O)NO)C4)cc1Cl)(C3)C2	EPHX2	enzyme activity, inhibitor, fluorescence			0.0005 µM
Cc1cc(C)c2nc(-c3ccccn3)cc(C(=O)Nc3ccc(S(=O)(=O)Nc4onc(C)c4C)cc3)c2c1	GPR55 (Homo sapiens, UniProt Q9Y2T6)	ERK1/2 phosphorylation, antagonist	U2OS cells expressing GPR55	30 min, together with: LPI 10 µM	0.2 ± 0.3 µM
Cc1nc2ccccc2n1Cc1ccc(C(=O)NO)cc1	HDAC10 (Homo sapiens, UniProt Q969S8)			concentration not given	12 µM
CC(=O)N[C@@H](CSC/C=C(\C)CC/C=C(\C)CCC=C(C)C)C(=O)O	Bifunctional epoxide hydrolase 2, N-terminal phosphatase domain (EPHX2, Homo sapiens, UniProt P34913)	N-terminal phosphatase activity	human	10 min preincubation, together with: AttoPhos 15 µM	3.4 µM
C=CCc1ccc(O)c(-c2cc(CC=C)ccc2O)c1	mitochondrial complex I	complex I-dependent oxygen consumption rate, inhibitor	G-361	24 h	31 µM
CC(C)[C@H]1c2ccc(F)cc2CC[C@@]1(CCN(C)CCCc1nc2ccccc2[nH]1)OC(=O)C1CC1	CACNA1I	inhibitor, FLIPR calcium	HEK293 with GCaMP6s-CAAX, Kir2.3	together with: KCl at EC90	0.34 µM
O=C1/C(=C/c2ccccc2)C(NC2CCCCC2)c2cc(Br)ccc21 (stereo not drawn)	Dual specificity protein phosphatase 6 (Homo sapiens, UniProt Q16828)	ERK phosphorylation restoration, inhibitor, chemical complementation	HeLa transfected with c-Myc-DUSP6	15 min, together with: TPA	55.9 ± 8.6 µM
CC(C)C[C@H](NC(=O)[C@H](Cc1ccc2ccccc2c1)NC(=O)[C@H](CCC(=O)O)NC(=O)CN1CCOCC1)C(=O)NC1CC1c1ccccc1 (stereo partly drawn)	APC	ligand displacement, FP			190 µM
COc1cc(/C=C/C(=O)O)ccc1O	firefly luciferase	luminescence signal, luminescence counter-screen	cell-free, after ADP processing	up to 77 µM, together with: ADP 1.25 µM, ATP 11.25 µM	no inhibition
OC1CCCc2ccc(OCc3ccccc3)cc21 (stereo not drawn)	MAOB	enzyme activity, inhibitor, fluorescence			0.249 µM
CC(C)[C@H](CO)Nc1nc(Nc2cc(N)cc(Cl)c2)c2ncn(C(C)C)c2n1	SRC (Homo sapiens, UniProt P12931)	enzyme activity, inhibitor, ADP detection			0.12 µM
O=C(OC(C(F)(F)F)C(F)(F)F)N1CCC(Cn2ccc3cccc(F)c32)CC1	MGLL	enzyme activity, inhibitor			0.58 µM

A few entries again:
Substance	target	test	test system	conditions	IC50
Cc1ccc(S(=O)(=O)N[C@H](CC(=O)N[C@@H](C)C(=O)NCc2cccc3ccccc23)CC(=O)NC(C)(C)C)cc1	Proteasome component C5/PSMB5 (Homo sapiens, UniProt P20618+P28074)	chymotrypsin-like activity, inhibitor		together with: suc-LLVY-AMC	35.3 µM
Cc1cc(C)c2nc(-c3ccccn3)cc(C(=O)Nc3ccc(S(=O)(=O)Nc4onc(C)c4C)cc3)c2c1	GPR55 (Homo sapiens, UniProt Q9Y2T6)	ERK1/2 phosphorylation, antagonist	U2OS cells expressing GPR55	30 min, together with: LPI 10 µM	0.2 ± 0.3 µM
CC(Oc1ccc(Cl)cc1Cl)C(=O)Nc1cc(Cl)ccc1C(=O)O (stereo not drawn)	TRPM4 (Homo sapiens, UniProt Q8TD43)	ion flux, inhibitor, fluorescence			1.8 µM
CCOCCOc1ccc2cc(-c3cn(CC4CCN(C(C)=O)CC4)c4ncnc(N)c34)ccc2c1	CDPK1	enzyme activity, inhibitor			> 2 µM
